Assay results of several laboratories.
A part holds a random share of what one study measured.
Chain of UniProt Q9BYT3 (whole entry, looked up): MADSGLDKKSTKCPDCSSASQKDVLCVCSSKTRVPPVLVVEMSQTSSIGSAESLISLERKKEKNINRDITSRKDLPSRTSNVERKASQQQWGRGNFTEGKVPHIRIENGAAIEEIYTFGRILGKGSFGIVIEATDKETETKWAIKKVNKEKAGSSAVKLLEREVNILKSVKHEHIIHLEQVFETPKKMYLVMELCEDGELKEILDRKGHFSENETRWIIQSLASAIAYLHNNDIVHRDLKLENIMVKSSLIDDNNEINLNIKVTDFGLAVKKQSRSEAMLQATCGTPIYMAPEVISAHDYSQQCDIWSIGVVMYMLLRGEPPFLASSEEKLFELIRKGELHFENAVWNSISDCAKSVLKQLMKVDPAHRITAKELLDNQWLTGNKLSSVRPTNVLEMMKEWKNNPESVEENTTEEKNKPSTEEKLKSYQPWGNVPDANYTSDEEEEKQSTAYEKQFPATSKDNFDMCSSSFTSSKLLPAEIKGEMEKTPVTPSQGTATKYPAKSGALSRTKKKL

Series 1 — cell line: mouse MPNST tumor cells; technique: high-content nuclear imaging; refers to: cell number; tested at: 10 µM; time: 12 h; notes: mean of 2 replicates; relative to: plate mean; direction: higher = more cells
Structure (SMILES) | nuclei count [z-score]
COc1ccc(Cc2nccc3cc(OC)c(OC)cc23)cc1OC | 0.116
Cc1sc2c(c1C)C(c1ccc(Cl)cc1)=NC(CC(N)=O)c1nnc(C)n1-2 (centres unmarked) | -2.54
COC[C@@H](NC(C)=O)C(=O)NCc1ccccc1 | -0.598
COc1ccccc1CN[C@H]1C2CCN(CC2)[C@H]1C(c1ccccc1)c1ccccc1 | 1.8
CC(C)(C)NCC(O)c1cc(Cl)c(N)c(Cl)c1 (centres unmarked) | 0.505
O=c1cccc2n1CC1CC2CN(CCN2CC3CC(C2)c2cccc(=O)n2C3)C1 | -0.47
CC(N)Cc1c[nH]c2ccc(O)cc12 (centres unmarked) | -0.358

Series 2 — cell line: HEK-293T; observed: pseudovirus infection; technique: FDA-approved drug library counter-screen; organism: VSV pseudotyped with VSV-G; tested at: 10 µM; time: 16 h; relative to: vehicle-treated
SMILES | GFP-positive cells [%]
CC[C@@H]1/C=C(\C)C[C@H](C)C[C@H](OC)[C@H]2O[C@@](O)(C(=O)C(=O)N3CCCC[C@H]3C(=O)O[C@H](/C(C)=C/[C@@H]3CC[C@H](Cl)[C@H](OC)C3)[C@H](C)[C@@H](O)CC1=O)[C@H](C)C[C@@H]2OC | 116
CCN(CC)CCCC(C)Nc1ccnc2cc(Cl)ccc12 (centres unmarked) | 104
CC(=O)c1c(C)c2cnc(Nc3ccc(N4CCNCC4)cn3)nc2n(C2CCCC2)c1=O | 125
CCOC(=O)C1=C(C)NC(C)=C(C(=O)OC)C1c1cccc(Cl)c1Cl (centres unmarked) | 14.9
N=C1CCCN1Cc1nc(O)nc(O)c1Cl | 118
OC[C@@H](O)[C@@H](O)[C@H](O)[C@@H](O)CO | 85.3
O=C1c2c(O)ccc(O)c2C(=O)c2c(NCCNCCO)ccc(NCCNCCO)c21 | 62.5

Series 3 — observed: ligand displacement; tested at: 10 µM
Target: Delta-type opioid receptor (OPRD1, Homo sapiens, UniProt P41143)
Chain of UniProt P41143 (whole entry, looked up): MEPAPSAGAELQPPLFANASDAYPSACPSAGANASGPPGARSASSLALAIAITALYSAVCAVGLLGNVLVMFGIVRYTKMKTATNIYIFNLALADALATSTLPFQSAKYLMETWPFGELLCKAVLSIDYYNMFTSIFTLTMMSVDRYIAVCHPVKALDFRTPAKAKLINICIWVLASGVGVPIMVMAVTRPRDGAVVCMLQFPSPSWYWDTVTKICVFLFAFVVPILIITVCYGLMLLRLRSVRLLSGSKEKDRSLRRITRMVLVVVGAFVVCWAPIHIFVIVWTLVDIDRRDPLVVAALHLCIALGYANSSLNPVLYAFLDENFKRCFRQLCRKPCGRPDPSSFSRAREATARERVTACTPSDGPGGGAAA
SMILES | inhibition [%]
COc1cccc(NC(=O)c2nc3scc(CN(C)Cc4ccccc4)c3c(=O)[nH]2)c1 | -5.54
COc1cc(C(=O)O)ncc1C#Cc1ccccc1NS(=O)(=O)c1cccc2c(N(C)C)ccnc12 | 84.3
CCOc1ccc(S(=O)(=O)Nc2ccc(Cl)cc2C#Cc2cnc(C(=O)O)cc2OC)c2ncccc12 | -8.88
O=C(N[C@H]1CCCCC/C=C\C2C[C@@]2(C(=O)O)NC(=O)[C@@H]2C[C@@H](Oc3ccncc3)CN2C1=O)OC1CCCC1 (some centres unmarked) | -2.02
O=c1nc(-c2ccccn2)sc2ccccc12 | 4.81
CC[C@H](CC(=O)O)n1c(=O)c2ncccc2n(Cc2cn(C)c3cc(C)cc(C)c23)c1=O | 9.83
C[C@@H](c1cccc(C#N)c1)n1cc(Cl)cc(C(N)=O)c1=N | -3.33
COc1cc(N[C@@H]2CCCC[C@]2(O)C(F)(F)F)ccc1F | 14.4
CS(=O)(=O)N1CCCC(NC(=O)[C@H](CCC2CCCCC2)NC(=O)c2ccc(CNC(=O)c3cnc4ccccn34)cc2)C1 (some centres unmarked) | 8.18
Nc1cnc(N2CCc3cc(S(=O)(=O)Nc4c(F)cc(Cl)cc4F)cc(N4CCCC4=O)c32)nc1 | -1.24
CN1CCN(C(=O)C(C)(C)c2ccc(C(=O)Nc3cn4cc(-c5cc(C(C)(C)C)cc(C(C)(C)C)c5)ccc4n3)cc2)CC1 | 46.2
NS(=O)(=O)c1cc(NC(=O)Cc2ccccc2)ccc1Oc1cccc(Cl)c1 | 20.5
CN([C@@H]1CCc2c(CC(=O)O)c3ccccc3n2C1)S(=O)(=O)c1ccc(F)cc1 | -10.7

Single results of other studies
Structure (SMILES) | tested on | species | sample | tested at | time | endpoint | result
O=c1c2c(Cl)cccc2nc([C@@H]2CCCN2)n1-c1cccnc1 |  | mouse | microsomes or S9 | 2 µM | 0.5 h | remaining compound | > 99.9%
Cc1nc(Nc2ncc(C(=O)Nc3c(C)cccc3Cl)s2)cc(N2CCN(CCO)CC2)n1 | STK33 (Homo sapiens, UniProt Q9BYT3) |  |  | 10 µM |  | inhibition | < 50%

A few entries again (single results of other studies):
Structure (SMILES) | tested on | species | sample | tested at | time | endpoint | result
O=c1c2c(Cl)cccc2nc([C@@H]2CCCN2)n1-c1cccnc1 |  | mouse | microsomes or S9 | 2 µM | 0.5 h | remaining compound | > 99.9%
Cc1nc(Nc2ncc(C(=O)Nc3c(C)cccc3Cl)s2)cc(N2CCN(CCO)CC2)n1 | STK33 (Homo sapiens, UniProt Q9BYT3) |  |  | 10 µM |  | inhibition | < 50%
